Results of several laboratories.
Protocols differ between the studies behind these lines. ± gives the spread as reported.
Gastric inhibitory polypeptide receptor: Gastric inhibitory polypeptide receptor (Mus musculus, UniProt Q0P543)
ACE2: Angiotensin-converting enzyme 2 (ACE2, Homo sapiens, UniProt Q9BYF1)
Adenosylmethionine-8-amino-7-oxononanoate aminotransferase: Adenosylmethionine-8-amino-7-oxononanoate aminotransferase (Mycobacterium tuberculosis, UniProt P9WQ81)
DRD1: D(1A) dopamine receptor (DRD1, Homo sapiens, UniProt P21728)

Compound | target | test | system | conditions | scale | quantity | value
Cc1ccccc1N1C(=O)/C(=C/c2ccc(OCc3cccc(C(=O)O)c3)cc2)C(=O)NC1=S | Tyrosine-protein phosphatase non-receptor type 22 (Ptpn22, Mus musculus, UniProt P29352) | phosphatase activity, inhibitor | – | – | relative to: LYP over mouse PEP | selectivity ratio | 15
CC(=O)N[C@H]1[C@@H](O)[C@H](O)[C@@H](CO)O[C@H]1O | N-acetylmannosamine kinase (nanK, Vibrio cholerae serotype O1, UniProt Q9KR61) | substrate, ADP-Glo kinase | – | together with: ATP 0.1 mM | – | Vmax | 0.67 ± 0.02 µM min^–1
Cc1cc(O)cc(-c2nc(Nc3cc(C(F)(F)F)cc(C(F)(F)F)c3)ncc2-c2ccnc(Cl)c2)c1 | SRC (Homo sapiens, UniProt P12931) | enzyme activity, inhibitor | – | 10 µM | – | inhibition | 33.6%
N#CC1=C(N)OC2=C(c3sc(N)c(C#N)c3CC2)C1c1ccccc1Cl (centres unmarked) | RNMT (Homo sapiens, UniProt O43148) | enzyme activity, inhibitor | – | 50 µM | – | inhibition | 92.6%
CC[C@H](C)[C@H](NC(=O)[C@H](CO)NC(=O)[C@H](Cc1ccc(O)cc1)NC(=O)[C@H](CC(=O)O)NC(=O)[C@H](CO)NC(=O)[C@@H](NC(=O)[C@H](Cc1ccccc1)NC(=O)[C@@H](NC(=O)CNC(=O)[C@H](CCC(=O)O)NC(=O)[C@H](C)NC(=O)[C@@H](N)Cc1ccc(O)cc1)[C@@H](C)O)[C@@H](C)CC)C(=O)N[C@@H](C)C(=O)N[C@@H](CCSC)C(=O)N[C@@H](CC(=O)O)C(=O)N[C@@H](CCCCN)C(=O)N[C@H](C(=O)N[C@@H](CCCNC(=N)N)C(=O)N[C@@H](CCC(N)=O)C(=O)N[C@@H](CCC(N)=O)C(=O)N[C@@H](CC(=O)O)C(=O)N[C@@H](Cc1ccccc1)C(=O)N[C@H](C(=O)N[C@@H](CC(N)=O)C(=O)N[C@@H](Cc1c[nH]c2ccccc12)C(=O)N[C@@H](CC(C)C)C(=O)N[C@@H](CC(C)C)C(=O)N[C@@H](C)C(=O)N[C@@H](CCC(N)=O)C(=O)N[C@@H](CCCCN)C(=O)NCC(=O)N[C@@H](CCCCN)C(=O)N[C@@H](CCCCN)C(=O)N[C@@H](CC(N)=O)C(=O)N[C@@H](CC(=O)O)C(=O)N[C@@H](Cc1c[nH]c2ccccc12)C(=O)N[C@@H](CCCCN)C(=O)N[C@@H](Cc1c[nH]cn1)C(=O)N[C@@H](CC(N)=O)C(=O)N[C@@H](CC(C)C)C(=O)N[C@H](C(=O)N[C@@H](CCC(N)=O)C(=O)O)[C@@H](C)O)C(C)C)[C@@H](C)CC | Gastric inhibitory polypeptide receptor | – | COS-7 | – | – | Emax | 144 ± 12%
Nc1ncnc2c1ncn2C1OC(CSCCC(N)C(=O)O)C(O)C1O (centres unmarked) | 5'-methylthioadenosine/S-adenosylhomocysteine nucleosidase (Vibrio cholerae serotype O1, UniProt Q9KPI8) | substrate | – | – | – | kcat | 0.5 s⁻¹
CC[C@H](C)[C@H](NC(=O)CNC(=O)[C@@H](NC(=O)[C@@H](N)[C@@H](C)O)[C@@H](C)O)C(=O)NCC(=O)N[C@@H](Cc1ccc(O)cc1)C(=O)N[C@@H](CCC(N)=O)C(=O)N1CCC[C@H]1C(=O)N[C@@H](Cc1ccc(O)cc1)C(=O)N[C@@H](CCCNC(=N)N)C(=O)N[C@H](C(=O)N[C@H](C(N)=O)C(C)C)C(C)C | ACE2 | binding | – | pH 8 | – | koff | 0.15 s⁻¹
C=C(C)C1C2OC(=O)C1C1(O)CC3OC34C(=O)OC2C14C (centres unmarked) | GABA-A receptor; GABA-A site (alpha1/beta2 interface) (Homo sapiens, UniProt P14867+P47870, V284A) | inhibitor, two-electrode voltage clamp | Xenopus oocytes | together with: GABA at EC50 | – | Hill coefficient | 1.34 ± 0.06
O=C(Cc1nc2cc(Cl)c(Cl)cc2nc1CC(=O)c1cccnc1)c1cccnc1 | Adenosylmethionine-8-amino-7-oxononanoate aminotransferase | – | – | 100 µg/mL, together with: enzyme 2 µM | – | inhibition | > 60%
CC1=C[C@H]2c3c(O)cc(CCc4ccccc4)cc3OC(C)(C)[C@H]2CC1 | SLC6A3 (Homo sapiens, UniProt Q01959) | – | – | 10 µM | – | binding inhibition | 83%
CC[C@H](C)[C@H](NC(=O)[C@H](CO)NC(=O)[C@H](Cc1ccc(O)cc1)NC(=O)[C@H](CC(=O)O)NC(=O)[C@H](CO)NC(=O)[C@@H](NC(=O)[C@H](Cc1ccccc1)NC(=O)[C@@H](NC(=O)CNC(=O)[C@@H]1CCCN1C(=O)[C@H](C)NC(=O)[C@@H](N)Cc1ccc(O)cc1)[C@@H](C)O)[C@@H](C)CC)C(=O)N[C@@H](C)C(=O)N[C@@H](CCSC)C(=O)N[C@@H](CC(=O)O)C(=O)N[C@@H](CCCCN)C(=O)N[C@H](C(=O)N[C@@H](CCCNC(=N)N)C(=O)N[C@@H](CCC(N)=O)C(=O)N[C@@H](CCC(N)=O)C(=O)N[C@@H](CC(=O)O)C(=O)N[C@@H](Cc1ccccc1)C(=O)N[C@H](C(=O)N[C@@H](CC(N)=O)C(=O)N[C@@H](Cc1c[nH]c2ccccc12)C(=O)N[C@@H](CC(C)C)C(=O)N[C@@H](CC(C)C)C(=O)N[C@@H](C)C(=O)N[C@@H](CCC(N)=O)C(=O)N[C@@H](CCCNC(=N)N)C(=O)NCC(=O)N[C@@H](CCCCN)C(=O)N[C@@H](CCCCN)C(=O)N[C@@H](CO)C(=O)N[C@@H](CC(=O)O)C(=O)N[C@@H](Cc1c[nH]c2ccccc12)C(=O)N[C@@H](CCCCN)C(=O)N[C@@H](Cc1c[nH]cn1)C(=O)N[C@@H](CC(N)=O)C(=O)N[C@H](C(=O)N[C@H](C(=O)N[C@@H](CCC(N)=O)C(=O)O)[C@@H](C)O)[C@@H](C)CC)C(C)C)[C@@H](C)CC | Gastric inhibitory polypeptide receptor | – | COS-7 | – | – | Emax | 59 ± 8%
CCOC(=O)C1C(OC(c2ccc(Cl)cc2)c2ccc(Cl)cc2)CC2CCC1N2C (single isomer, unassigned) | DRD1 | binding, radioligand displacement | – | inactive if below 75% at 10000 nM, together with: [3H]SCH 23390 | – | Ki | inactive
CN1CCc2cc(Br)c(O)cc2C(c2ccc(NC(=O)CCOCCOCCOCCn3cc(COCCOCCOCCOCCC(=O)NCCc4c[nH]cn4)nn3)cc2)C1 (centres unmarked) | DRD1 | binding, association-competition | – | together with: GDA 120 nM | – | residence time | 5 to 8 min
CCCCCn1cc(C(=O)c2ccc3ccccc3c2)c2ccccc21 | CNR1 (Homo sapiens, UniProt P21554, I267L) | Gαi1 engagement, agonist, BRET | – | – | relative to: reference agonist at wild-type CB1 | Emax | 72.6 ± 4%
CC(Cc1ccc(O)cc1)NCC(O)c1ccc(O)c(O)c1 (centres unmarked) | ADRB2 (Homo sapiens, UniProt P07550) | β-arrestin recruitment over cAMP production, agonist, operational model | – | – | relative to: isoproterenol | bias factor | ~1
Cc1cc(S(=O)(=O)N(C)CC(=O)Nc2ccn(C)c(=O)c2)c2[nH]ncc2c1 | Dihydrolipoyl dehydrogenase (Mycobacterium tuberculosis, UniProt P9WHH9) | SPR | – | – | – | complex half-life | 12 min
CCCCCCc1ccc(Oc2ccccc2Br)c(O)c1 | inhA (Mycobacterium tuberculosis, UniProt P9WGR1) | enzyme activity, inhibitor, progress curve analysis | – | 20 °C | – | k5 | 0.28 min⁻¹
NCc1ccc2[nH]c3c(c2c1)CC1(O)C2Cc4ccc(O)c5c4C1(CCN2CC1CC1)C3O5 (centres unmarked) | OPRK1 (Homo sapiens, UniProt P41145) | [3H]diprenorphine binding | – | – | relative to: Ki δ over Ki κ | selectivity ratio | 1
CC(C)C[C@H](NC(=O)[C@H](CCCCN)NC(=O)CNC(=O)[C@H](Cc1c[nH]cn1)NC(=O)[C@H](CCCNC(=N)N)NC(=O)[C@H](CC(C)C)NC(=O)[C@H](Cc1ccc(O)cc1)NC(=O)[C@H](CCCNC(=N)N)NC(=O)[C@H](Cc1ccc(O)cc1)NC(=O)[C@H](CCCCN)NC(=O)[C@@H](N)Cc1ccc(O)cc1)C(=O)N[C@@H](CCCNC(=N)N)C(N)=O | ACE2 | binding | – | pH 8 | – | koff | 0.12 s⁻¹
CC(C)c1nc2cc(O)ccc2c(=O)n1-c1ccc(C#N)cc1 | TRPV1 (Homo sapiens, UniProt Q8NER1, A566S) | calcium influx, FLIPR | – | – | relative to: mutant over wild type | potency shift | 7.1 fold
CC1C(=NNC(=O)c2ccncc2)C(C)C(c2ccc(Cl)cc2)OC1c1ccc(Cl)cc1 (centres unmarked) | DNA gyrase subunit A/DNA gyrase subunit B (Mycobacterium tuberculosis, UniProt P9WG45+P9WG47) | enzyme activity, inhibitor | – | 6.25 µg/mL | – | inhibition | 67.3%
O=C1CC(=O)N(c2ccccc2)c2cc(Cl)ccc2N1 | Gabrg2/Gabra2, with β3 subunit (Rattus norvegicus, UniProt P18508+P23576) | positive allosteric modulator, whole-cell patch clamp | HEK293 | α2β3γ2 subunits, together with: GABA at EC10 | – | Emax | 253 ± 32%
CSCC[C@@H](C=O)NC(=O)[C@H](CC(C)C)NC(=O)[C@H](CC(C)C)NC(C)=O | Replicase polyprotein 1ab, main protease (Human coronavirus OC43, UniProt P0C6X6) | thermal shift | – | – | higher = stronger binding | ΔTm | 3.48 ± 0.02 °C
C/C=C(\N)C(=O)CCCCC | cqsS (Vibrio cholerae serotype O1, UniProt Q9KM66) | bioluminescence, agonist | Vibrio cholerae | – | relative to: Ea-CAI-1 at 100% | EC50 | 100%
O=c1cc(-c2ccccc2F)[nH]c2cc3c(cc12)OCO3 | Adenosylmethionine-8-amino-7-oxononanoate aminotransferase | – | – | 100 µg/mL, together with: enzyme 2 µM | – | inhibition | 78.7%
CCCCCn1cc(C(=O)c2cccc3c2CC(C)(C)C3)c2ccccc21 | CNR1 (Homo sapiens, UniProt P21554, L359V) | Gαi1 engagement, agonist, BRET | – | – | relative to: reference agonist at wild-type CB1 | Emax | 124 ± 4.1%

Excerpt of the above:
Compound | target | test | system | conditions | scale | quantity | value
CC1C(=NNC(=O)c2ccncc2)C(C)C(c2ccc(Cl)cc2)OC1c1ccc(Cl)cc1 (centres unmarked) | DNA gyrase subunit A/DNA gyrase subunit B (Mycobacterium tuberculosis, UniProt P9WG45+P9WG47) | enzyme activity, inhibitor | – | 6.25 µg/mL | – | inhibition | 67.3%
CCCCCn1cc(C(=O)c2cccc3c2CC(C)(C)C3)c2ccccc21 | CNR1 (Homo sapiens, UniProt P21554, L359V) | Gαi1 engagement, agonist, BRET | – | – | relative to: reference agonist at wild-type CB1 | Emax | 124 ± 4.1%
CCCCCCc1ccc(Oc2ccccc2Br)c(O)c1 | inhA (Mycobacterium tuberculosis, UniProt P9WGR1) | enzyme activity, inhibitor, progress curve analysis | – | 20 °C | – | k5 | 0.28 min⁻¹
CCOC(=O)C1C(OC(c2ccc(Cl)cc2)c2ccc(Cl)cc2)CC2CCC1N2C (single isomer, unassigned) | DRD1 | binding, radioligand displacement | – | inactive if below 75% at 10000 nM, together with: [3H]SCH 23390 | – | Ki | inactive
